Experimental data collected from several papers.
Compare with care: the assays were run in different laboratories.
Sequence of UniProt P63085 (whole entry, looked up): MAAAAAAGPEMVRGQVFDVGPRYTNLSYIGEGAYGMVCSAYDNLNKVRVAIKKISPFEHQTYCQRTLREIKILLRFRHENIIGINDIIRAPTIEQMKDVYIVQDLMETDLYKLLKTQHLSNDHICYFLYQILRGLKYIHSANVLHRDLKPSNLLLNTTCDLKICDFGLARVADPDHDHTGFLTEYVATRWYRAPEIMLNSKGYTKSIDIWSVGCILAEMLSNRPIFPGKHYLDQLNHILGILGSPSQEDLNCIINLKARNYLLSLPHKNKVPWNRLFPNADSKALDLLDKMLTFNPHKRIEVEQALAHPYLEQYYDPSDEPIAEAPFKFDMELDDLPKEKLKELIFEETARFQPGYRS
Sequence of UniProt P11802 (whole entry, looked up): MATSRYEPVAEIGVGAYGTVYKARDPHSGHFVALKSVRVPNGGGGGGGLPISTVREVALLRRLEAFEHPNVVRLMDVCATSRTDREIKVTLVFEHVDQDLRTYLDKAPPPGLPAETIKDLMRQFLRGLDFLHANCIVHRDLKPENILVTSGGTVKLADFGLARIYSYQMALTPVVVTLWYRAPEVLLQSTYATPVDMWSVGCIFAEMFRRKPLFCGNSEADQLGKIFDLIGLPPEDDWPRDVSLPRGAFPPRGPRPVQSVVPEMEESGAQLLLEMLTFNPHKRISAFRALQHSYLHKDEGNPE
Sequence of UniProt Q9H4A3 (whole entry, looked up): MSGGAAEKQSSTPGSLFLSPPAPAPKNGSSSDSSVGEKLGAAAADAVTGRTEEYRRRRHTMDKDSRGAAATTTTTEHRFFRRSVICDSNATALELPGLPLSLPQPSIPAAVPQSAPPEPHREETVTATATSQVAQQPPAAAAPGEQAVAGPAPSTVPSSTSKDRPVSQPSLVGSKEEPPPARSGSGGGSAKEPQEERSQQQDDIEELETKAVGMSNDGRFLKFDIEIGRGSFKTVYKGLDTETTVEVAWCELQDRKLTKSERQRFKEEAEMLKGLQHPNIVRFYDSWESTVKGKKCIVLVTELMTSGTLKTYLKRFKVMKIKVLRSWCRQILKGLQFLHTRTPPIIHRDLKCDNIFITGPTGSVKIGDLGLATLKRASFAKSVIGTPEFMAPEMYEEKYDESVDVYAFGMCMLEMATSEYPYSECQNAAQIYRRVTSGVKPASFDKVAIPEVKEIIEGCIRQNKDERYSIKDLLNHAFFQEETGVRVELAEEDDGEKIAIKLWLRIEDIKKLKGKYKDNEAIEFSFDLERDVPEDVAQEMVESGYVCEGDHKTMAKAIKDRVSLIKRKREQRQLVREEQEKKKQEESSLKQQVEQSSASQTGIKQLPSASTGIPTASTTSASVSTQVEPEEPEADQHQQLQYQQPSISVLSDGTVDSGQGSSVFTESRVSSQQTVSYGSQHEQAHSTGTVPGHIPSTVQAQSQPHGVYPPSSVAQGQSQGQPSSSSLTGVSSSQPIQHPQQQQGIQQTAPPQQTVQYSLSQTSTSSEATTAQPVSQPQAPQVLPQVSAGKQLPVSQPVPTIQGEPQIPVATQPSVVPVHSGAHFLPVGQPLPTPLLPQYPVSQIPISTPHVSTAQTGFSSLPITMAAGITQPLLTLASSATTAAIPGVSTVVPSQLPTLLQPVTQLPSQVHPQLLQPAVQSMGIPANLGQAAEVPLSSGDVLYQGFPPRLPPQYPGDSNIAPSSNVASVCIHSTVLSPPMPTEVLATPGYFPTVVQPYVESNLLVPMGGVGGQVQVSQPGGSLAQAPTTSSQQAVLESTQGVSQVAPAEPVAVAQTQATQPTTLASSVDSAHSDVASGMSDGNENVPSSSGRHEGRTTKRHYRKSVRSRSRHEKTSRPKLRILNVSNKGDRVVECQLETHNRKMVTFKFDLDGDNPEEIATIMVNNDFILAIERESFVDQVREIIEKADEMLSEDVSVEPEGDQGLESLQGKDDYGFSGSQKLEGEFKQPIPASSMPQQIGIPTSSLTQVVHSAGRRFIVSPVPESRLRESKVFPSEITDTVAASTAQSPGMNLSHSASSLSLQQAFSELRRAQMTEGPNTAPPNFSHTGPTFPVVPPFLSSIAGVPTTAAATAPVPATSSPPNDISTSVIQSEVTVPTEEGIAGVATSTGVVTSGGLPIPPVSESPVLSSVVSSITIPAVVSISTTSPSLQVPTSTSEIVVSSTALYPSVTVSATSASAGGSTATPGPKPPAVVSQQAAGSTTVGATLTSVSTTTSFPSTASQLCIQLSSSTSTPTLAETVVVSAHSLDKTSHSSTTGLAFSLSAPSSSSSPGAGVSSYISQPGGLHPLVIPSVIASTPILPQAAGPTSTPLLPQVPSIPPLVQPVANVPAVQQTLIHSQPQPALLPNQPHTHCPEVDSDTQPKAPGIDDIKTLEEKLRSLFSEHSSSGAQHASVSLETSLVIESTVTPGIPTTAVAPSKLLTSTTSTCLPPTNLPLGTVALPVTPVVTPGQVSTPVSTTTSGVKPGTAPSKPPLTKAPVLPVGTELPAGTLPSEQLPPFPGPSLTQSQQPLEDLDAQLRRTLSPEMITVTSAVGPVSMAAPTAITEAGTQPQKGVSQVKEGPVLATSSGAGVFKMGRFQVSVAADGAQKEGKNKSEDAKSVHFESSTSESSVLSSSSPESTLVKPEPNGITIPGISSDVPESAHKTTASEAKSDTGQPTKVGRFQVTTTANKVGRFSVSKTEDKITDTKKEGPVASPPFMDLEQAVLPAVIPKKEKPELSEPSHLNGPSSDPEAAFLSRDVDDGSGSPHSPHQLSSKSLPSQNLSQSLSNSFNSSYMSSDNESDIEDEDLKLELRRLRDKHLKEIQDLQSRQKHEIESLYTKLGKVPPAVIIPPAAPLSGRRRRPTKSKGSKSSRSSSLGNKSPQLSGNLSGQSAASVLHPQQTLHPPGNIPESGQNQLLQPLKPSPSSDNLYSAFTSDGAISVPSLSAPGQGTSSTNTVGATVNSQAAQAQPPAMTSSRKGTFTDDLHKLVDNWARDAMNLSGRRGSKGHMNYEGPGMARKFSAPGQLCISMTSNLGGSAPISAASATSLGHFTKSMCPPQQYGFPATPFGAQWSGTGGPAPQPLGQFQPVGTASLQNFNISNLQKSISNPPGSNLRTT
Sequence of UniProt P49286 (whole entry, looked up): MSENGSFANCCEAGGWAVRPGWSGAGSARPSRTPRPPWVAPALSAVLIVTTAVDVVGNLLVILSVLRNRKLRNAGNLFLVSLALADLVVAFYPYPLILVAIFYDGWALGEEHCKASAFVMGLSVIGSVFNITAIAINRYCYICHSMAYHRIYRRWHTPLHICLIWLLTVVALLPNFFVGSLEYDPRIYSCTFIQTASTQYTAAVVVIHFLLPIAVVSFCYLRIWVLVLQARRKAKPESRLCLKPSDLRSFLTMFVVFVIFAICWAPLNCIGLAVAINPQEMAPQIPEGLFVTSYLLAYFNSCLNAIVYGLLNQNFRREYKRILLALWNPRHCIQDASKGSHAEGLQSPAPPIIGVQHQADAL
Sequence of UniProt P48039 (whole entry, looked up): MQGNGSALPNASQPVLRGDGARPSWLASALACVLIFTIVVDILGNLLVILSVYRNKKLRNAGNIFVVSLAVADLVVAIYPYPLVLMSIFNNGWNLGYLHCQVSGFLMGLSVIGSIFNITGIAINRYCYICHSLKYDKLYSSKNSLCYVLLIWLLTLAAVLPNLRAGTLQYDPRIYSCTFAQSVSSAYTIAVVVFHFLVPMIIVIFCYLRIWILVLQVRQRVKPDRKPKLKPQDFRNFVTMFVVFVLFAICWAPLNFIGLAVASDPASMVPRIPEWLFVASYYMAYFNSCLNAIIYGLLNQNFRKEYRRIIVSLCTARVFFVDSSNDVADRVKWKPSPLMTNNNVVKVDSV

`Cc1cc([C@@H](C)Nc2ccccc2C(=O)O)c2nc(N3CCC(F)(F)CC3)c(C#N)c(=O)n2c1` gave a remaining binding of 93% (SRC (Homo sapiens, UniProt P12931); binding, competition with immobilised ligand; 10 µM).
`Cc1ccc(N(O)N=Nc2ccc(S(=O)(=O)Nc3onc(C)c3C)cc2)cc1` gave an inhibition of 10.9% (DPPH scavenging, absorbance; 120 µg/mL).
The remaining signal of `Cc1ccc(NC(=O)c2ccc(C)c(C(F)(F)F)c2)cc1C#Cc1nn(C2CCC(O)CC2)c2ncnc(N)c12` (stereo not shown) is reported as 101% (Mapk1 (Mus musculus, UniProt P63085); cell-free assay; 10 µM).
`CCC(=O)NC1Cc2ccccc2C(c2ccccc2)C1` (stereo not shown) has an Emax of 48% (MTNR1B (Homo sapiens, UniProt P49286); cAMP, agonist, TR-FRET; CHO-K1; 20 min).
`C1=C/COCc2cc(ccc2OCCN2CCCC2)Nc2nccc(n2)-c2cccc(c2)COC/1` has a remaining binding of 45% (PIK3CA (Homo sapiens, UniProt P42336, H1047L); binding; 0.1 µM).
The Emax of `COc1ccc2ncn(CCNC(C)=O)c2c1` is reported as 60% (MTNR1A (Homo sapiens, UniProt P48039); cAMP, agonist, TR-FRET; CHO-K1; 20 min).
The remaining binding of `CCCCC(=O)Nc1ccc(-c2ccc3ncn(CCC)c(=O)c3c2)cn1` is reported as 100% (FLT3 (Homo sapiens, UniProt P36888, N841I); binding, competition with immobilised ligand; 0.5 µM).
For `Nc1ncnc2occ(-c3ccc(NC(=O)Nc4cc(C(F)(F)F)ccc4F)cc3)c12`, the remaining signal was 0.2% (MAP3K19 (Homo sapiens, UniProt Q56UN5); cell-free assay, inhibitor; 20 µM).
For `Cc1noc(NS(=O)(=O)c2ccc(N=NN(C)O)cc2)c1C`, the inhibition was 17.5% (DPPH scavenging, absorbance; 120 µg/mL).
`COc1cc(-c2cncc3c2CN(C)Cc2cc(N4CCNCC4)ccc2-3)cc(OC)c1OC` gave a remaining activity of 103% (WNK1 (Homo sapiens, UniProt Q9H4A3); enzyme activity, inhibitor; 1 µM).
`C=CC(=O)N1CCC(COCC(=O)N2CCN(c3nc(-c4cnc(N)nc4C(F)F)nc(N4CCOC[C@@H]4C)n3)CC2)CC1` gave a remaining binding of 93% (PRKACB (Homo sapiens, UniProt P22694); binding, competition with immobilised ligand; 1 µM).
The remaining activity of `CNc1ncc2c(/C=C/C(=O)N3CCC(OC)CC3)nn(Cc3cccc(C(F)(F)F)c3)c2n1` is reported as 86% (Cyclin-dependent kinase 4, with cyclin D3 (CDK4, Homo sapiens, UniProt P11802); enzyme activity, inhibitor, radiometric; 1 µM).
`CC(=NNC(N)=S)c1ccc(Nc2nnc(-c3ccc(Cl)cc3)c3ccccc23)cc1` has a cell death of 91.5% (HepG2; cell growth or viability, MTT; 0.312 µM).

For quick reference, copied from above:
`CC(=NNC(N)=S)c1ccc(Nc2nnc(-c3ccc(Cl)cc3)c3ccccc23)cc1` has a cell death of 91.5% (HepG2; cell growth or viability, MTT; 0.312 µM).
